Experimental data gathered from unrelated publications.
Lines come from different studies, so protocols differ.

SMILES | test | test system | conditions | quantity | value
CC1(C)CC[C@]2(NC(=O)C(C)(F)F)CC[C@]3(C)[C@H](C(=O)C=C4[C@@]5(C)C=C(C#N)C(=O)C(C)(C)[C@@H]5CC[C@]43C)[C@@H]2C1 | – | human, plasma | oral, 150 mg once daily, day 17 predose, mean | trough concentration | 37.7 ng/mL
CCCC[C@H](NC(=O)[C@@H](NC(=O)[C@H](CCC(=O)O)NC(=O)[C@]1(C)CCCC=CCCC[C@](C)(NC(=O)CNC(=O)[C@H](Cc2ccccc2)NC(=O)[C@H](CCCCN)NC(=O)[C@H](CCCCN)NC(=O)[C@H](C)NC(=O)[C@H](CO)NC(=O)[C@H](Cc2c[nH]cn2)NC(=O)[C@H](CC(C)C)NC(=O)[C@H](Cc2ccccc2)NC(=O)[C@H](CCCCN)NC(=O)CNC(=O)[C@@H](NC(=O)CN)[C@@H](C)CC)C(=O)N[C@@H](C)C(=O)N[C@@H](Cc2ccccc2)C(=O)N[C@@H](C(C)C)C(=O)N1)[C@@H](C)CC)C(=O)N[C@@H](CC(N)=O)C(=O)N[C@@H](CO)C(N)=O | HPLC C18 column | – | – | retention time | 13.6 min
COc1c(N2C[C@@H]3CCCN[C@@H]3C2)c(F)cc2c(=O)c(C(=O)O)cn(C3CC3)c12 | – | healthy volunteers | oral, 400 mg single dose, day 5, 12.00 h | QTcI change from baseline | 1.3 ms
OC[C@H]1O[C@@H](c2ccc(F)c(Cc3cc4ccccc4s3)c2)[C@H](O)[C@@H](O)[C@@H]1O | – | Japanese type 1 diabetes patients | oral, 50 mg/day, day 2 | hypoglycaemia adverse events | 9 % patients
O=C(O)C[C@H](O)C[C@H](O)/C=C/c1c(C2CC2)nc2ccccc2c1-c1ccc(F)cc1 | – | OATP1B1/1B3 humanized mouse, plasma | oral, 5 mg/kg, geometric mean, together with: silymarin 500 mg/kg oral | AUC(0-12h) | 1.16 µM·h
Cn1cc(Nc2nccc(-c3ccc4c(c3)CN(C3COC3)CC[C@H]4NC(=O)c3cn(C(C)(C)C)nn3)n2)cn1 | refers to: B cell count | human, clinical trial, whole blood | 50 mg twice daily, follow-up | percent change from baseline | -9.07%
O=C(c1cccnc1-c1ccncc1)N1CCC(O)(Cc2ccccc2)CC1 | – | healthy Japanese adults, plasma | oral, 300 mg twice daily, day 21 | Vz/F | 641 L
Cc1nc(-c2ccc(OCC(C)C)c(C#N)c2)sc1C(=O)O | – | healthy Chinese subjects, fasted | oral, 40 mg single dose | subjects with abdominal pain | 2.6%
CC(=O)O[C@H]1C(=O)[C@@]2(C)[C@H]([C@H](OC(=O)c3ccccc3)[C@]3(O)C[C@H](OC(=O)[C@H](O)[C@@H](NC(=O)c4ccccc4)c4ccccc4)C(C)=C1C3(C)C)[C@]1(OC(C)=O)CO[C@@H]1C[C@@H]2O | refers to: Fatigue | patients with advanced solid tumours | intravenous, dose not given, grade 3 and 4, possibly related to drug | adverse event incidence | 13%
NC(=O)N1c2ccccc2C=Cc2ccccc21 | refers to: nervous system disorders (SOC) | human male | oral, dose not given, CTCAE on-treatment AEs | adverse events incidence | 7%
Cc1cc(-c2nccc3c2ccn3CC(=O)Nc2ccc(-c3cnccn3)cn2)ccn1 | – | human | SAD part, single 7 mg dose | subjects with any serious TEAE | 0%
CC(C)(C(=O)N1CCOc2c(C#N)cncc2C1)C(F)F | refers to: nervous system disorders | human | oral, 20 mg once daily, 14 days, multiple ascending dose | subjects with adverse event | 12.5%
NC1(C(=O)N[C@@H](CCO)c2ccc(Cl)cc2)CCN(c2nc[nH]c3nccc2-3)CC1 | – | metastatic CRPC patients | dose not given, grade 3 to 4, treatment-related, all doses, together with: enzalutamide 160 mg daily | incidence of Dysuria | 0%
COc1cccc(-c2n[nH]c(SCc3ccccn3)n2)c1OC | – | Sprague-Dawley rat, male, plasma | oral gavage, 10 mg/kg | Cmax | 32500 ng/mL
C=C1C[C@@H]2[C@H](CC[C@]3(C)C(=O)CC[C@@H]23)[C@@]2(C)C=CC(=O)C=C12 | – | postmenopausal women, serum | oral, 25 mg daily, 1 year, UGT2B17 and GSTA1 genotypes | share of total metabolites | 19%
O=C(Nc1nc2cccc(-c3ccc(CN4CCS(=O)(=O)CC4)cc3)n2n1)C1CC1 | refers to: non-cardiac chest pain | human rheumatoid arthritis patients | oral, 30 mg once daily, 4 weeks, regardless of relatedness | treatment-emergent adverse events | 0%
CC(C)(C)c1cc(C(C)(C)C)c(NC(=O)c2c[nH]c3ccccc3c2=O)cc1O | – | FaSSIF | literature solubility over dose | dose-adjusted solubility | 0.000353 mL⁻¹

For quick reference, copied from above:
SMILES | test | test system | conditions | quantity | value
CCCC[C@H](NC(=O)[C@@H](NC(=O)[C@H](CCC(=O)O)NC(=O)[C@]1(C)CCCC=CCCC[C@](C)(NC(=O)CNC(=O)[C@H](Cc2ccccc2)NC(=O)[C@H](CCCCN)NC(=O)[C@H](CCCCN)NC(=O)[C@H](C)NC(=O)[C@H](CO)NC(=O)[C@H](Cc2c[nH]cn2)NC(=O)[C@H](CC(C)C)NC(=O)[C@H](Cc2ccccc2)NC(=O)[C@H](CCCCN)NC(=O)CNC(=O)[C@@H](NC(=O)CN)[C@@H](C)CC)C(=O)N[C@@H](C)C(=O)N[C@@H](Cc2ccccc2)C(=O)N[C@@H](C(C)C)C(=O)N1)[C@@H](C)CC)C(=O)N[C@@H](CC(N)=O)C(=O)N[C@@H](CO)C(N)=O | HPLC C18 column | – | – | retention time | 13.6 min
Cc1nc(-c2ccc(OCC(C)C)c(C#N)c2)sc1C(=O)O | – | healthy Chinese subjects, fasted | oral, 40 mg single dose | subjects with abdominal pain | 2.6%
O=C(c1cccnc1-c1ccncc1)N1CCC(O)(Cc2ccccc2)CC1 | – | healthy Japanese adults, plasma | oral, 300 mg twice daily, day 21 | Vz/F | 641 L
